# Results gathered from unrelated publications.
# Lines come from different studies, so protocols differ. ± marks the error that the study gave.
# U2AF2: U2AF2 148-342 (Homo sapiens, UniProt P26368)
# Sequence of UniProt P26368 (whole entry, looked up): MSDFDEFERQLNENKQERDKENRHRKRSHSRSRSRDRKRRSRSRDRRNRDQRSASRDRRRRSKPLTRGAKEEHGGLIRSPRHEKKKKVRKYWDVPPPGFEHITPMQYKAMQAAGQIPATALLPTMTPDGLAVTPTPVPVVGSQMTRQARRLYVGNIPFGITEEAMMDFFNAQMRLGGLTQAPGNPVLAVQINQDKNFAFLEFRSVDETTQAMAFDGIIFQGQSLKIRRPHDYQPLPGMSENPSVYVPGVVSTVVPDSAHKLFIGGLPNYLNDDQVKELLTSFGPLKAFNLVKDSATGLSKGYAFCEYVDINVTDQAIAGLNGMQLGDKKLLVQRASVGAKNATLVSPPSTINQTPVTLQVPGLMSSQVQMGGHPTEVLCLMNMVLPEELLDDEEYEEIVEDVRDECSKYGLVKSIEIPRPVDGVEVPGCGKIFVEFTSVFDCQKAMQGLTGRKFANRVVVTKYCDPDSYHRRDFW
# B1: FasL; sequence looked up; chain QIGHPSPPPEKKELRKVAHLTGKSNSRSMPLEWEDTYGIVLLSGVKYKKGGLVINETGLYFVYSKVYFRGQSCNNLPLSHKVYMRNSKYPQDLVMMEGKMMSYCTTGQMWARSSYLGAVFNLTSADHLYVNVSELSLVNFEESQTFFGLYKL
# B2: human ADAR1; sequence looked up; chain MNPRQGYSLSGYYTHPFQGYEHRQLRYQQPGPGSSPSSFLLKQIEFLKGQLPEAPVIGKQTPSLPPSLPGLRPRFPVLLASSTRGRQVDIRGVPRGVHLRSQGLQRGFQHPSPRGRSLPQRGVDCLSSHFQELSIYQDQEQRILKFLEELGEGKATTAHDLSGKLGTPKKEINRVLYSLAKKGKLQKEAGTPPLWKIAVSTQAWNQHSGVVRPDGHSQGAPNSDPSLEPEDRNSTSVSEDLLEPFIAVSAQAWNQHSGVVRPDSHSQGSPNSDPGLEPEDSNSTSALEDPLEFLDMAEIKEKICDYLFNVSDSSALNLAKNIGLTKARDINAVLIDMERQGDVYRQGTTPPIWHLTDKKRERMQIKRNTNSVPETAPAAIPETKRNAEFLTCNIPTSNASNNMVTTEKVENGQEPVIKLENRQEARPEPARLKPPVHYNGPSKAGYVDFENGQWATDDIPDDLNSIRAAPGEFRAIMEMPSFYSHGLPRCSPYKKLTECQLKNPISGLLEYAQFASQTCEFNMIEQSGPPHEPRFKFQVVINGREFPPAEAGSKKVAKQDAAMKAMTILLEEAKAKDSGKSEESSHYSTEKESEKTAESQTPTPSATSFFSGKSPVTTLLECMHKLGNSCEFRLLSKEGPAHEPKFQYCVAVGAQTFPSVSAPSKKVAKQMAAEEAMKALHGEATNSMASDNQPEGMISESLDNLESMMPNKVRKIGELVRYLNTNPVGGLLEYARSHGFAAEFKLVDQSGPPHEPKFVYQAKVGGRWFPAVCAHSKKQGKQEAADAALRVLIGENEKAERMGFTEVTPVTGASLRRTMLLLSRSPEAQPKTLPLTGSTFHDQIAMLSHRCFNTLTNSFQPSLLGRKILAAIIMKKDSEDMGVVVSLGTGNRCVKGDSLSLKGETVNDCHAEIISRRGFIRFLYSELMKYNSQTAKDSIFEPAKGGEKLQIKKTVSFHLYISTAPCGDGALFDKSCSDRAMESTESRHYPVFENPKQGKLRTKVENGEGTIPVESSDIVPTWDGIRLGERLRTMSCSDKILRWNVLGLQGALLTHFLQPIYLKSVTLGYLFSQGHLTRAICCRVTRDGSAFEDGLRHPFIVNHPKVGRVSIYDSKRQSGKTKETSVNWCLADGYDLEILDGTRGTVDGPRNELSRVSKKNIFLLFKKLCSFRYRRDLLRLSYGEAKKAARDYETAKNYFKKGLKDMGYGNWISKPQEEKNFYLCPV
# B3: Aralar1, human; sequence looked up; chain AVKVQTTKRGDPHELRNIFLQYASTEVDGERYMTPEDFVQRYLGLYNDPNSNPKIVQLLAGVADQTKDGLISYQEFLAFESVLCAPDSMFIVAFQLFDKSGNGEVTFENVKEIFGQTIIHHHIPFNWDCEFIRLHFGHNRKKHLNYTEFTQFLQELQLEHARQAFALKDKSKSGMISGLDFSDIMVTIRSHMLTPFVEENLVSAAGGSISHQVSFSYFNAFNSLLNNMELVRKIYSTLAGTRKDVEVTKEEFAQSAIRYGQVTPLEIDILYQLADLYNASGRLTLADIERIAPLAEGALPYNLAELQRQQSPGLGRPIWLQIAESAYRFTLGSVAGAVGATAVYPIDLVKTRMQNQRGSGSVVGELMYKNSFDCFKKVLRYEGFFGLYRGLIPQLIGVAPEKAIKLTVNDFVRDKFTRRDGSVPLPAEVLAGGCAGGSQVIFTNPLEIVKIRLQVAGEITTGPRVSALNVLRDLGIFGLYKGAKACFLRDIPFSAIYFPVYAHCKLLLADENGHVGGLNLLAAGAMAGVPAASLVTPADVIKTRLQVAARAGQTTYSGVIDCFRKILREEGPSAFWKGTAARVFRSSPQFGVTLVTYELLQRWFYIDFGGLKPAGSEPTPKSRIADLPPANPDHIGGYRLATATFAGIENKFGLYLPKFKSPSVAVVQPKAAVAATQ
# Sequence of UniProt P21980 (whole entry, looked up): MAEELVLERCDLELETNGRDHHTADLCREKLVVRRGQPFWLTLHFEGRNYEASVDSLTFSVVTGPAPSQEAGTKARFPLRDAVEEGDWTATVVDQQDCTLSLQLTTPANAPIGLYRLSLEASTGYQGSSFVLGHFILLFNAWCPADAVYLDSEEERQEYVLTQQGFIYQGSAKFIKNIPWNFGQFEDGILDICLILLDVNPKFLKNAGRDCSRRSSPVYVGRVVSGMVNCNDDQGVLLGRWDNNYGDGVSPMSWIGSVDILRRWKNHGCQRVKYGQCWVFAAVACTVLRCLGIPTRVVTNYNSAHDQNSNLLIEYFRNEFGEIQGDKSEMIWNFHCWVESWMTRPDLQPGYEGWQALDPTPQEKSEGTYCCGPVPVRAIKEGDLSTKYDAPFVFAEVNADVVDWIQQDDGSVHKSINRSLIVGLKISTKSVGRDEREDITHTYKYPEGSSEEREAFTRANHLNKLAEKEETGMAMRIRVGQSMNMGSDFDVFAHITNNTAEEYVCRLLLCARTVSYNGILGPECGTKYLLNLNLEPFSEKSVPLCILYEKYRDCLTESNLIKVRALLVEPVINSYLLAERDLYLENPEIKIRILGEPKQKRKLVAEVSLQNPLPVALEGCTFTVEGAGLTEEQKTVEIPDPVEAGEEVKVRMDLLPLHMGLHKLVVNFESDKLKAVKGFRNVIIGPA
Molecule,tested on,test,system,setting,how to read,endpoint,result
EIDPIGHNF,Jurkat expressing engineered TCR,"NFAT-eGFP reporter, fluorescence microscopy",peptide,"concentration not given, HLA-A*01:01 on EL4 cells",,GFP-positive cells,0.473%
human SETD2,CYB5R4 knockout human cells,"PP4 interaction, 3xFLAG-PP4C IP-MS",,concentration not given,reference: CYB5R4 KO over parental,log2 fold change,0.51
ELDPIPLGF,Jurkat NFAT-eGFP expressing engineered TCR,NFAT reporter gene,peptide,"concentration not given, HLA-A*01:01 presentation",,GFP-positive cells,1.82%
UGGAUUAGC (ssRNA),U2AF2,sequencing of bound RNA,RNA,motif only,,Kd,8.05 µM
ESDIIPLDY,Jurkat expressing engineered TCR,"NFAT-eGFP reporter, fluorescence microscopy",peptide,"concentration not given, HLA-A*01:01 on EL4 cells",,GFP-positive cells,0.507%
CUUUUUAUU (ssRNA),U2AF2,sequencing of bound RNA,RNA,motif only,,Kd,2.13 µM
catalase,HT-29,"western blot, measured: cyclin A, D1 and E",,"concentration not given, 48 h",,protein level,decreased
Peginesatide,UT7/EPO,"tyrosine phosphorylation, LC-MS/MS phosphoproteomics, GluC, measured: PIK3CA tyrosine 508",,"10 nM, 15 min, together with: 10 U/mL EPO",reference: vehicle,phosphorylation level,9.1 fold
QVDPIGQDY,Jurkat expressing engineered TCR,"NFAT-eGFP reporter, fluorescence microscopy",peptide,"concentration not given, HLA-A*01:01 on EL4 cells",,GFP-positive cells,0.562%
MTVCNASQRQAHAQATAVSL,HCC1359,phage binding,peptide,,reference: targeting over control phage,selectivity ratio,0.72 ± 0.36
GTDPIPLGM,Jurkat expressing engineered TCR,"NFAT-eGFP reporter, fluorescence microscopy",peptide,"concentration not given, HLA-A*01:01 on EL4 cells",,GFP-positive cells,0.416%
GGGAGCAGGAGAGAGGUCAGAUGAACGAGAGAUGGUAGGCCUCAAAUACAGUCCCUAUGCGUGCUAGUGUGA (ssRNA; 2'-fluoro pyrimidines),"TGM2 2-687 (Homo sapiens, UniProt P21980)",SPR,RNA,together with: MgCl2 5 mM,higher = more binding,relative binding,245 RU
human PABP1,CYB5R4 knockout human cells,"PP4 interaction, 3xFLAG-PP4C IP-MS",,concentration not given,reference: CYB5R4 KO over parental,log2 fold change,0.11
B1 (FasL),mouse thymocytes,"inducer, flow cytometry",,concentration not given,,PI-positive cells,7%
human cathepsin D,CYB5R4 knockout human cells,"PP4 interaction, 3xFLAG-PP4C IP-MS",,concentration not given,reference: CYB5R4 KO over parental,log2 fold change,0.26
heparin,PC-12 cells,,,"100 µg/mL, together with: HBGF-2",,cells with neurites,< 5%
B2 (human ADAR1),CYB5R4 knockout human cells,"PP4 interaction, 3xFLAG-PP4C IP-MS",,concentration not given,reference: CYB5R4 KO over parental,log2 fold change,-1.41
epoetin alfa,UT7/EPO,"RT-qPCR, measured: DUSP2",,"concentration not given, 90 min, normalized to HPRT1",reference: vehicle,mRNA level,3.7 fold
POTE ankyrin domain I (human),CYB5R4 knockout human cells,"PP6 interaction, 3xFLAG-PP6C IP-MS",,concentration not given,reference: CYB5R4 KO over parental,log2 fold change,0.1
RSDYIPLAY,Jurkat expressing engineered TCR,"NFAT-eGFP reporter, fluorescence microscopy",peptide,"concentration not given, HLA-A*01:01 on EL4 cells",,GFP-positive cells,0.497%
"B3 (Aralar1, human)",CYB5R4 knockout human cells,"PP4 interaction, 3xFLAG-PP4C IP-MS",,concentration not given,reference: CYB5R4 KO over parental,log2 fold change,-0.38
"Ac-LRKLRKRLLRDWLKAFYDKVAEKLKEAF-NH2 (N-acetyl, C-amide)",THP-1 macrophages,,peptide,"10 µg/mL, together with: [3H]-cholesterol loading",reference: control,cholesterol efflux,10%

# A few entries again:
Molecule,tested on,test,system,setting,how to read,endpoint,result
human cathepsin D,CYB5R4 knockout human cells,"PP4 interaction, 3xFLAG-PP4C IP-MS",,concentration not given,reference: CYB5R4 KO over parental,log2 fold change,0.26
ELDPIPLGF,Jurkat NFAT-eGFP expressing engineered TCR,NFAT reporter gene,peptide,"concentration not given, HLA-A*01:01 presentation",,GFP-positive cells,1.82%
GTDPIPLGM,Jurkat expressing engineered TCR,"NFAT-eGFP reporter, fluorescence microscopy",peptide,"concentration not given, HLA-A*01:01 on EL4 cells",,GFP-positive cells,0.416%
